Assay results pooled from the literature.
Each line is one published result; not all experiments were run side by side. ± gives the spread as reported.
Chain of UniProt Q9NQG5 (whole entry, looked up): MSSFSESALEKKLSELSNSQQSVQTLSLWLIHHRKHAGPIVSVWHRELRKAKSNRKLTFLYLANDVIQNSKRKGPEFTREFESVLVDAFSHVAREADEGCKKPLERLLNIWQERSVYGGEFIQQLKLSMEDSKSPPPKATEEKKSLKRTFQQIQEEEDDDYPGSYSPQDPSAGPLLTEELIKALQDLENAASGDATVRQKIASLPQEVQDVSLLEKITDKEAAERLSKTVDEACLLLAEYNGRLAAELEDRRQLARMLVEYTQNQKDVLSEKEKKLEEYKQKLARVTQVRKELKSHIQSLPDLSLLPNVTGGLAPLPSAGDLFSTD
Chain of UniProt P01258 (whole entry, looked up): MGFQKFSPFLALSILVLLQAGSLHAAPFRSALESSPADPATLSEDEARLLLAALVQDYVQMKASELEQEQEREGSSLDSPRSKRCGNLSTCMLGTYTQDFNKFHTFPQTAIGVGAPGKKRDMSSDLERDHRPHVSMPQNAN
Chain of UniProt P05067 (whole entry, unmodified, looked up): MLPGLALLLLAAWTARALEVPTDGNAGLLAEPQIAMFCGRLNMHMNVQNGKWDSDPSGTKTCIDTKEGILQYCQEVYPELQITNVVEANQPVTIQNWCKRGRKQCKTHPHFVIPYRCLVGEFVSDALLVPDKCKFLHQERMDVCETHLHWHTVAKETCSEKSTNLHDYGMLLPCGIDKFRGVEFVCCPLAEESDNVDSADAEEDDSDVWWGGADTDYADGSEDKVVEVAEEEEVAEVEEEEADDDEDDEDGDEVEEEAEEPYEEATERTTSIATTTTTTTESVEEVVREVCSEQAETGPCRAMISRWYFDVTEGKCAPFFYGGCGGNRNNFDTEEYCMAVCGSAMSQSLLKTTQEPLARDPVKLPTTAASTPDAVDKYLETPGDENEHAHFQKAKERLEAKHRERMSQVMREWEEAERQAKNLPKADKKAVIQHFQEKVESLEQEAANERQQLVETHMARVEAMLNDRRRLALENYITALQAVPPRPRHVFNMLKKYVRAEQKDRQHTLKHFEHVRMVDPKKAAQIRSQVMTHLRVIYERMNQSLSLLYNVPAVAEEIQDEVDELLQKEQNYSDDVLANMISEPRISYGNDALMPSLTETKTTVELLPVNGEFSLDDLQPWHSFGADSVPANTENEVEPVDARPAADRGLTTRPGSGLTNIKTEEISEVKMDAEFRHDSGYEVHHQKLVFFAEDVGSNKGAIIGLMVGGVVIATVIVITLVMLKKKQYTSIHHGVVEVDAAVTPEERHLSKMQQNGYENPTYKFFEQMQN
Chain of UniProt O35082 (whole entry, looked up): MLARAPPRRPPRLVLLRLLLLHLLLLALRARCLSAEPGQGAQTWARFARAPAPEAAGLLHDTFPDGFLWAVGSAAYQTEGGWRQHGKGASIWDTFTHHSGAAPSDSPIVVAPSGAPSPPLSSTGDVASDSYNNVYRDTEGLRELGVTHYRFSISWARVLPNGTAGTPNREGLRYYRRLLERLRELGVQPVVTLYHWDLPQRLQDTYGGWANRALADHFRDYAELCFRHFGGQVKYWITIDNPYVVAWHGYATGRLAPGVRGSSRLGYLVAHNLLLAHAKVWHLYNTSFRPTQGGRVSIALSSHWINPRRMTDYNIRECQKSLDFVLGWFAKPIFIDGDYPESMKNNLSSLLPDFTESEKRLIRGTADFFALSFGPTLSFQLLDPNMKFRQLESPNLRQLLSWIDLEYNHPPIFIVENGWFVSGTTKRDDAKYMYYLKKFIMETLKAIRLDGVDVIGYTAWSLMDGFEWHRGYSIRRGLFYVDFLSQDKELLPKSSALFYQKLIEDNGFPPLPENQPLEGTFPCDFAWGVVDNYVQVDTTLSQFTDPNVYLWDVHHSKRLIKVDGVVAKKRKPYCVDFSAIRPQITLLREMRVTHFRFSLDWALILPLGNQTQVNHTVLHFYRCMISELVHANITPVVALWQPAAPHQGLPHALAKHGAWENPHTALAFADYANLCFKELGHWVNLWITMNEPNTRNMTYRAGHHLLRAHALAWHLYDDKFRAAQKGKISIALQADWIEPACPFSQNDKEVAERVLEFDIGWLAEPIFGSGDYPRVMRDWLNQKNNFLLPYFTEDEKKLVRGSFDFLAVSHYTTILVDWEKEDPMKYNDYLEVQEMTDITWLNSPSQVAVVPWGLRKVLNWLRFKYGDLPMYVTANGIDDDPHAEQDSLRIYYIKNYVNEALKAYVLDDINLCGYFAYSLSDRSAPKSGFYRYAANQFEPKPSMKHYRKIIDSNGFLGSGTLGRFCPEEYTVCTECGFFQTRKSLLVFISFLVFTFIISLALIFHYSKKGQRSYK
Chain of UniProt Q15109 (whole entry, looked up): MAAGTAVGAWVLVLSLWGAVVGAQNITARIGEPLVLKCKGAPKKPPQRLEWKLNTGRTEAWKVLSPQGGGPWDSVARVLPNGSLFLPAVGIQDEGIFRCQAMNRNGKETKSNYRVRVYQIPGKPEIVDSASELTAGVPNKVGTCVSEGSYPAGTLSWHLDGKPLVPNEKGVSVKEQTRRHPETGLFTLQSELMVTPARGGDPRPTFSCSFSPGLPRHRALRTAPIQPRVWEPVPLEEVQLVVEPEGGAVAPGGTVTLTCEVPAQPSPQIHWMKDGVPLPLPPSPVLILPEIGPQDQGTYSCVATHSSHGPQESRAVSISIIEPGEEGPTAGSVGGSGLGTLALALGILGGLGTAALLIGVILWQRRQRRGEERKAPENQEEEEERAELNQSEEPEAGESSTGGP
Chain of UniProt P63104 (whole entry, looked up): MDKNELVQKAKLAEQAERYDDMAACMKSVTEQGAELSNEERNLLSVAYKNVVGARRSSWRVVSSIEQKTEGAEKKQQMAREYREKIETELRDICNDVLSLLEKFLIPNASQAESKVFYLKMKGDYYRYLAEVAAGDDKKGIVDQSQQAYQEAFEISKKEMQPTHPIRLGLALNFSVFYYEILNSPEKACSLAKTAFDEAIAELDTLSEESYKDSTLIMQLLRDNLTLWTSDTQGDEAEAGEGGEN
Chain of UniProt Q02152 (whole entry, looked up): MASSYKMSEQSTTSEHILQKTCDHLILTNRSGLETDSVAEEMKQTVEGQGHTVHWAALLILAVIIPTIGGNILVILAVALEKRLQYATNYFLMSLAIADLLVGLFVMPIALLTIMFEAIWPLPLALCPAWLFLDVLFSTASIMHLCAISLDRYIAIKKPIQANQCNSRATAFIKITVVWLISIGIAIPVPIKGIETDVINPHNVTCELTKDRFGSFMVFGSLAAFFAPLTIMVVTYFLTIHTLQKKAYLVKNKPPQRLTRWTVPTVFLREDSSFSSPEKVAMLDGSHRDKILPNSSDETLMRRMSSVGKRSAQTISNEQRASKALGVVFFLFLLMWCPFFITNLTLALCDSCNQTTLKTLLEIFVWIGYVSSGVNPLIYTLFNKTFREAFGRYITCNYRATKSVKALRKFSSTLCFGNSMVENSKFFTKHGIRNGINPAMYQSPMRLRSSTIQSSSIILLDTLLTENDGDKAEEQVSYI
Chain of UniProt Q8TDX7 (whole entry, looked up): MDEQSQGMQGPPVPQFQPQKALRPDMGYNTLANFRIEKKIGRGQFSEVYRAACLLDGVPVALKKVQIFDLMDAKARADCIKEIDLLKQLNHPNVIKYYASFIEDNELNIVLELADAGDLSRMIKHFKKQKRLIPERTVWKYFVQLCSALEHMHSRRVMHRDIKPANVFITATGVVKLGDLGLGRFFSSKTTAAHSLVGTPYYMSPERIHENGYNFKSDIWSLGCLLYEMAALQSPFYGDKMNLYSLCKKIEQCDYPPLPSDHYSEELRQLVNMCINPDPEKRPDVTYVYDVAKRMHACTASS
Chain of UniProt Q9NZC7 (whole entry, looked up): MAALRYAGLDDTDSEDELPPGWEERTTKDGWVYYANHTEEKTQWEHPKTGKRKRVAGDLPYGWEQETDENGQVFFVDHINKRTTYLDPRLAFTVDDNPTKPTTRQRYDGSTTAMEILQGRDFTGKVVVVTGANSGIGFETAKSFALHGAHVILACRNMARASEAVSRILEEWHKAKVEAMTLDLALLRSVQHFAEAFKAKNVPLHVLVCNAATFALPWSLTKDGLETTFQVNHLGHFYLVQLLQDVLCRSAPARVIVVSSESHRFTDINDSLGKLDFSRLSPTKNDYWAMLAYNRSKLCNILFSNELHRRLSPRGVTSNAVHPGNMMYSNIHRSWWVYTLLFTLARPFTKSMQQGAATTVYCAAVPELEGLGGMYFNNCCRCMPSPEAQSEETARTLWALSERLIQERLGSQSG
Chain of UniProt Q39204 (whole entry, looked up): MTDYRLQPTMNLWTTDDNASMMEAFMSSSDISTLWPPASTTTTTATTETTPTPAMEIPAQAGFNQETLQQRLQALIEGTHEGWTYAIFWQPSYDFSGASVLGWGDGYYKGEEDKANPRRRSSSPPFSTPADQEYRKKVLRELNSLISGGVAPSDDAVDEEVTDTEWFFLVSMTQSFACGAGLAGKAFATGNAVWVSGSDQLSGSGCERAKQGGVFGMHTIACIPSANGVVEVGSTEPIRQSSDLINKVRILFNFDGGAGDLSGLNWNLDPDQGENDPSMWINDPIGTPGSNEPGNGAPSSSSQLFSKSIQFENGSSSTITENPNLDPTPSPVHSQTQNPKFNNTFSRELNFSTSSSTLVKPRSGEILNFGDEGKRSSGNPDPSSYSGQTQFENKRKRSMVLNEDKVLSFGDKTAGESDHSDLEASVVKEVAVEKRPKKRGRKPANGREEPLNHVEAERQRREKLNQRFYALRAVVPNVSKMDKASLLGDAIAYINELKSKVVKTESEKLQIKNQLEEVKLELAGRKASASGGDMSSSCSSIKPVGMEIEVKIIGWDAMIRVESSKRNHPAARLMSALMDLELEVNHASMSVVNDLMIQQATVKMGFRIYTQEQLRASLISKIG
Chain of UniProt Q05097 (whole entry, looked up): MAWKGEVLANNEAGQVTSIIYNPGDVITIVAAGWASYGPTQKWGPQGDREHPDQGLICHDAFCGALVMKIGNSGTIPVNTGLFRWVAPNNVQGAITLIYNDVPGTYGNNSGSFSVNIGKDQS

Structure (SMILES)	target	test	test system	setting	Kd [µM]
CC(C)C[C@H](NC(=O)[C@H](C)N)C(=O)N[C@H](C(=O)N[C@@H](CCCNC1=NC(=O)C(C)N1)C(=O)N[C@@H](CCC(=O)O)C(=O)N[C@@H](Cc1ccc(O)cc1)C(=O)N[C@H](C(=O)NCC(=O)O)[C@@H](C)O)[C@@H](C)O (stereo partly drawn)	AGER (Homo sapiens, UniProt Q15109)	binding, fluorescence		pH 6.5	0.044
C#CC[C@H](NC(=O)CNC(=O)[C@H](CO)NC(=O)[C@H](CCCCN)NC(=O)[C@H](C)N(C)C(=O)[C@H](C)NC(=O)[C@@H](NC(=O)[C@@H](NC(=O)[C@H](CCCNC(=N)N)NC(=O)[C@H](Cc1c[nH]cn1)NC(=O)[C@@H]1CCCN1C(=O)[C@H](Cc1c[nH]c2ccccc12)NC(=O)[C@@H](N)CCSC)C(C)C)[C@@H](C)O)C(=O)O	Microtubule-associated protein 1 light chain 3 beta (Homo sapiens, UniProt Q9GZQ8)	fluorescence polarization			0.418 ± 0.154
COc1ccc(/C=C/C(=O)c2ccc(OCCSc3nnc(-c4ccccc4)c(-c4ccccc4)n3)cc2)c(OC)c1	CP (Tobacco mosaic virus, UniProt P69687)	binding, MST			81.7
CC(=O)N[C@H]1CCCCn2cc3ccccc3c2SC[C@@H](C(N)=O)NC(=O)[C@H](Cc2ccccc2)NC(=O)[C@H](CO)NC(=O)[C@H](CO)NC(=O)[C@H](CC(C)C)NC(=O)[C@@H]2CCCN2C(=O)[C@H](Cc2ccccc2)NC(=O)[C@H]([C@@H](C)O)NC1=O	NEK7 (Homo sapiens, UniProt Q8TDX7)	binding, BLI			2.1
CC[C@@H]1C(=O)N(C)c2cnc(Nc3ccc(C(=O)NCCCC[C@H](NC(=O)[C@@H](NC(=O)[C@H](CO)NC(=O)[C@H](Cc4cncn4CCCCCCCCc4ccccc4)NC(=O)[C@H](CC(C)C)NC(=O)[C@@H]4CCCN4C(C)=O)[C@@H](C)CP(=O)(O)O)C(N)=O)cc3OC)nc2N1C1CCCC1	PLK1 (Homo sapiens, UniProt P53350)	binding			0.017
CC(C)C[C@H](NC(=O)[C@@H](NC(=O)[C@@H](NC(=O)CNC(=O)CNC(=O)CNC(=O)CNC(=O)CNC(=O)[C@H](CC(N)=O)NC(=O)[C@H](CCCNC(=N)N)NC(=O)[C@H](Cc1c[nH]cn1)NC(=O)[C@H](CCCNC(=N)N)NC(=O)[C@H](Cc1ccc(O)cc1)NC(=O)[C@@H]1CCCN1C(=O)[C@@H]1CCCN1C(=O)[C@@H]1CCCN1C(=O)[C@@H]1CCCN1C(=O)[C@H](CC(C)C)NC(=O)[C@@H](NC(=O)[C@@H](NC(=O)CN)[C@@H](C)O)C(C)C)[C@@H](C)O)C(C)C)C(=O)N1CCC[C@H]1C(=O)N[C@@H](C)C(=O)N[C@@H](C)C(=O)N1CCC[C@H]1C(=O)N[C@@H](Cc1ccc(O)cc1)C(=O)N[C@@H](CCCNC(=N)N)C(=O)N[C@@H](Cc1c[nH]cn1)C(=O)N[C@@H](CCCNC(=N)N)C(=O)N[C@@H](CC(N)=O)C(=O)O	WW domain-containing oxidoreductase, WW1-WW2 tandem domains (WWOX, Homo sapiens, UniProt Q9NZC7)	NMR titration			10 to 20
CC(C)C[C@H](NC(=O)[C@@H]1CCCN1C(=O)[C@H](CCCCN)NC(=O)CCS[C@@H]1O[C@H](CO)[C@H](O)[C@H](O)[C@H]1O)C(=O)NCCCC[C@H](NC(=O)[C@H](CC(C)C)NC(=O)[C@@H]1CCCN1C(=O)[C@H](CCCCN)NC(=O)CCS[C@@H]1O[C@H](CO)[C@H](O)[C@H](O)[C@H]1O)C(=O)N[C@@H](Cc1ccccc1)C(=O)N[C@@H](CS)C(N)=O	lecA (Pseudomonas aeruginosa, UniProt Q05097)	binding, ITC		pH 7.5	0.6
CC(=O)N[C@@H](CCCNC(=N)N)C(=O)N[C@H](C(=O)N1CCC[C@H]1C(=O)N[C@@H](COP(=O)(O)O)C(=O)N[C@@H](CC(C)C)C(=O)N1CCC[C@H]1C(=O)N[C@H](C(=O)N1CCC[C@H]1C(c1ccccc1)c1ccccc1)[C@@H](C)O)[C@@H](C)O	YWHAZ (Homo sapiens, UniProt P63104)	binding, ITC			5.4
Cc1cc(-c2ccc3ccccc3c2)nnc1NCCN1CCN(C)CC1	5-hydroxytryptamine receptor 2B (Mus musculus, UniProt Q02152)	β-arrestin-1 recruitment, antagonist, Schild analysis	mouse	with: serotonin	0.073
C[C@@H](O)[C@H](NC(=O)[C@@H]1CCCN1C(=O)[C@H](CO)NC(=O)[C@H](Cc1ccc(O)cc1)NC(=O)[C@H](COP(=O)(O)O)NC(=O)[C@@H]1CCCN1C(=O)[C@H](CO)NC(=O)[C@@H](NC(=O)[C@@H]1CCCN1C(=O)[C@H](CO)NC(=O)[C@H](Cc1ccc(O)cc1)NC(=O)[C@H](CO)NC(=O)[C@@H]1CCCN1C(=O)[C@@H](N)CO)[C@@H](C)O)C(=O)N[C@@H](CO)C(=O)N1CCC[C@H]1C(=O)N[C@@H](CO)C(=O)N[C@@H](Cc1ccc(O)cc1)C(=O)O	Regulation of nuclear pre-mRNA domain-containing protein 1B, CID domain (RPRD1B, Homo sapiens, UniProt Q9NQG5)	binding, fluorescence polarization		pH 8.0, room temperature	32.5 ± 3
CC[C@H](C)[C@H](NC(=O)[C@@H](NC(=O)[C@H](Cc1c[nH]c2ccccc12)NC(=O)[C@H](C)NC(=O)[C@H](CO)NC(=S)Nc1ccc2c(c1)C(=O)OC21c2ccc(O)cc2Oc2cc(O)ccc21)C(C)C)C(=O)N[C@H](C(=O)N[C@H](C(=O)N1CCC[C@H]1C(=O)N[C@@H](Cc1ccccc1)C(=O)N[C@@H](CC(C)C)C(=O)N[C@H](C(=O)N[C@@H](CC(N)=O)C(=O)N[C@@H](CC(C)C)C(=O)O)[C@@H](C)O)[C@@H](C)CC)C(C)C	Rgg transcriptional regulator (Streptococcus pneumoniae, UniProt A0A0E7KI02)	binder, fluorescence polarization		20 min, pH 7.4, 20 °C, fluorescein-labelled peptide	3.3 ± 0.1
CSCC[C@@H]1NC(=O)[C@H](CO)NC(=O)[C@@H](NC(=O)[C@H](CCC(N)=O)NC(=O)[C@H](CCCNC(=N)N)NC(C)=O)CSC/C=C/CSC[C@@H](C(=O)N[C@@H](Cc2ccccc2)C(=O)N[C@@H](Cc2ccc(O)cc2)C(=O)N[C@@H](Cc2c[nH]cn2)C(=O)N[C@@H](CO)C(=O)N[C@@H](CCCCN)C(N)=O)NC(=O)[C@H]([C@@H](C)O)NC1=O	PCNA (Homo sapiens, UniProt P12004)	binding, SPR			2.82
CC(C)C[C@H](NC(=O)[C@@H](N)Cc1ccccc1)C(=O)O	Amyloid-beta precursor protein, amyloid-beta 1-40 Y10A (APP, Homo sapiens, UniProt P05067, Y681A)			concentration not given	135 ± 71.3
CC[C@H](C)[C@H](NC(=O)[C@H](CCCNC(=N)N)NC(=O)[C@H](CCC(=O)O)NC(=O)[C@@H](N)CCC(=O)O)C(=O)N[C@@H](Cc1ccccc1)C(=O)N[C@@H](CCCNC(=N)N)C(=O)N[C@@H](CCCNC(=N)N)C(=O)N[C@H](C(=O)NCC(=O)NCC(=O)N[C@@H](CC(C)C)C(=O)N[C@@H](Cc1ccccc1)C(=O)NCC(=O)N[C@@H](CCC(N)=O)C(=O)N[C@H](C(=O)N[C@@H](CC(=O)O)C(=O)O)C(C)C)[C@@H](C)O	JPH2 (Homo sapiens, UniProt Q9BR39, del162-274)	isothermal titration calorimetry		pH 7.4, 25 °C	1.8
CC(C)C[C@H](NC(=O)[C@H](CC(N)=O)NC(=O)[C@H](CC(N)=O)NC(=O)[C@@H]1CCCN1C(=O)[C@H](Cc1c[nH]c2ccccc12)NC(=O)[C@H](CC(N)=O)NC(=O)[C@@H](N)CC(C)C)C(=O)N[C@@H](CCC(=O)O)C(=O)NCC(=O)N[C@@H](CCCNC(=N)N)C(=O)N[C@@H](CC(=O)O)C(=O)N1CCC[C@H]1C(=O)N[C@@H](Cc1ccc(O)cc1)C(=O)N[C@@H](CC(N)=O)C(=O)N[C@@H](CCCNC(=N)N)C(=O)O	Prothrombin (F2, Homo sapiens, UniProt P00734)	binding, double-filter binding		1 h, room temperature	0.16
CC(C)C[C@H](NC(=O)[C@H](CCCNC(=N)N)NC(=O)[C@H](CCC(=O)O)NC(=O)[C@H](CCCCN)NC(=O)[C@H](CCCNC(=N)N)NC(=O)[C@H](CCCCN)NC(=O)[C@]1(C)CCCC=CCCC[C@](C)(NC(=O)[C@H](CC(C)C)NC(=O)[C@H](CO)NC(=O)[C@]2(C)CCCC=CCCC[C@](C)(NC(=O)[C@@H]3CCCN3C(=O)[C@@H](NC(=O)[C@H](CO)NC(=O)c3ccc4c(c3)C(=O)OC43c4ccc(N(C)C)cc4Oc4cc(N(C)C)ccc43)C(C)C)C(=O)N[C@@H](C)C(=O)N[C@@H](CCCNC(=N)N)C(=O)N[C@@H](CCCCN)C(=O)N2)C(=O)N[C@@H](CCCNC(=N)N)C(=O)N[C@@H](Cc2ccccc2)C(=O)N[C@@H](CC(C)C)C(=O)N1)C(=O)O	Transcription factor MYC2 (MYC2, Arabidopsis thaliana, UniProt Q39204)	binding, fluorescence anisotropy		pH 8.0, MYC2 residues 55-259	0.16 ± 0.06
CC(C)C[C@H](NC(=O)[C@@H]1CCCN1C(=O)[C@H](CC(=O)O)NC(=O)[C@H](CO)NC(=O)[C@H](C)NC(=O)CC1c2ccccc2-c2ccccc21)C(=O)NCC(=O)N[C@H](C(=O)N[C@H](C(=O)N[C@@H](CCCNC(=N)N)C(=O)N1CCC[C@H]1C(=O)N[C@@H](CCCNC(=N)N)C(=O)N[C@@H](C)C(=O)N[C@@H](CCCNC(=N)N)C(N)=O)C(C)C)C(C)C	Klotho (Kl, Mus musculus, UniProt O35082)	BLI competition binding		30 min, 30 °C, with: 100 nM mouse Klotho, immobilized Pep-10-Biotin	0.064 ± 0.027
CC[C@H](C)[C@@H]1NC(=O)CNC(=O)[C@H](CCSC)NC(=O)[C@H](C(C)C)NC(=O)[C@H]([C@@H](C)O)NC(=O)[C@@H]2CSSC[C@@H]3NC(=O)[C@H](Cc4c[nH]cn4)NC(=O)[C@@H](NC(=O)[C@@H](NC(=O)[C@H](Cc4ccccc4)NC(=O)[C@H](C)N)[C@@H](C)O)CSSC[C@@H](C(=O)N[C@@H](CC(C)C)C(=O)O)NC(=O)[C@H](CSSC[C@H](NC(=O)[C@H](CO)NC(=O)[C@H](CCCNC(=N)N)NC(=O)[C@H](CCCNC(=N)N)NC3=O)C(=O)N[C@@H](Cc3ccc(O)cc3)C(=O)N[C@@H](CO)C(=O)N[C@@H]([C@@H](C)O)C(=O)N[C@@H](CCC(=O)O)C(=O)N[C@@H](Cc3ccc(O)cc3)C(=O)N[C@@H](CO)C(=O)N[C@@H](Cc3ccc(O)cc3)C(=O)NCC(=O)N[C@@H]([C@@H](C)O)C(=O)N2)NC(=O)[C@H](Cc2ccccc2)NC(=O)[C@H](CCCNC(=N)N)NC(=O)[C@H](Cc2c[nH]cn2)NC(=O)[C@H](CC(N)=O)NC1=O	CALCA (Homo sapiens, UniProt P01258)	binding, SPR			3.77

For quick reference, copied from above:
Structure (SMILES)	target	test	test system	setting	Kd [µM]
CC[C@H](C)[C@H](NC(=O)[C@H](CCCNC(=N)N)NC(=O)[C@H](CCC(=O)O)NC(=O)[C@@H](N)CCC(=O)O)C(=O)N[C@@H](Cc1ccccc1)C(=O)N[C@@H](CCCNC(=N)N)C(=O)N[C@@H](CCCNC(=N)N)C(=O)N[C@H](C(=O)NCC(=O)NCC(=O)N[C@@H](CC(C)C)C(=O)N[C@@H](Cc1ccccc1)C(=O)NCC(=O)N[C@@H](CCC(N)=O)C(=O)N[C@H](C(=O)N[C@@H](CC(=O)O)C(=O)O)C(C)C)[C@@H](C)O	JPH2 (Homo sapiens, UniProt Q9BR39, del162-274)	isothermal titration calorimetry		pH 7.4, 25 °C	1.8
COc1ccc(/C=C/C(=O)c2ccc(OCCSc3nnc(-c4ccccc4)c(-c4ccccc4)n3)cc2)c(OC)c1	CP (Tobacco mosaic virus, UniProt P69687)	binding, MST			81.7
